Published values from different studies.
Compare with care: the assays were run in different laboratories. ± marks the error that the study gave.
IDE: Insulin-degrading enzyme (IDE, Homo sapiens, UniProt P14735)
Chain of UniProt P14735 (whole entry, looked up): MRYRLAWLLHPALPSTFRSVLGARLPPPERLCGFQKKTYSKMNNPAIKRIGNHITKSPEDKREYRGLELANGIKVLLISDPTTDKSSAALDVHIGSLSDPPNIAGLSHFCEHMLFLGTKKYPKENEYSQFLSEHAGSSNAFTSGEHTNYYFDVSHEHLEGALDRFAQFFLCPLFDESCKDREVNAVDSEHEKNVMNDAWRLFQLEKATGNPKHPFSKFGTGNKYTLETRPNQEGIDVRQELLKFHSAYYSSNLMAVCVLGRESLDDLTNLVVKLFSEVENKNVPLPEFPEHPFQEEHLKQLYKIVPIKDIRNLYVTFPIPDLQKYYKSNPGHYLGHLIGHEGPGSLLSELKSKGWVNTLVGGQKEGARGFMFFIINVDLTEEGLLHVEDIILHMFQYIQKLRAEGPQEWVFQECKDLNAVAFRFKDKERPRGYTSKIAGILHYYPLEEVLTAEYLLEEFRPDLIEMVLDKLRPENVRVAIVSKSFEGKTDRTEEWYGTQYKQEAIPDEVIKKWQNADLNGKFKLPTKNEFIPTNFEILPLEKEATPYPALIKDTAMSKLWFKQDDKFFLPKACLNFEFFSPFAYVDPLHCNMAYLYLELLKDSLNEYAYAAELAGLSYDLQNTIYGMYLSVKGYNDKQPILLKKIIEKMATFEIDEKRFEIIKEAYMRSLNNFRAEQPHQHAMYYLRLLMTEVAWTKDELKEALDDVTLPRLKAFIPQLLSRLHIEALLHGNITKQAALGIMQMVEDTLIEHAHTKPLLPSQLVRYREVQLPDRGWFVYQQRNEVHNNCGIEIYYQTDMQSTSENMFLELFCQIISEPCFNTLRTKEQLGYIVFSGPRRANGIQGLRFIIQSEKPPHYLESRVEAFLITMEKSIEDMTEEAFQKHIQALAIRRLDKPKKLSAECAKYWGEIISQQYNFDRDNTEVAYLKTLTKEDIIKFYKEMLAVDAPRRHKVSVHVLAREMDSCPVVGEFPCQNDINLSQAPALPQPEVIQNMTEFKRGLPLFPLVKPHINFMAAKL
SLC10A1: Hepatic sodium/bile acid cotransporter (SLC10A1, Homo sapiens, UniProt Q14973)
Chain of UniProt Q14973 (whole entry, looked up): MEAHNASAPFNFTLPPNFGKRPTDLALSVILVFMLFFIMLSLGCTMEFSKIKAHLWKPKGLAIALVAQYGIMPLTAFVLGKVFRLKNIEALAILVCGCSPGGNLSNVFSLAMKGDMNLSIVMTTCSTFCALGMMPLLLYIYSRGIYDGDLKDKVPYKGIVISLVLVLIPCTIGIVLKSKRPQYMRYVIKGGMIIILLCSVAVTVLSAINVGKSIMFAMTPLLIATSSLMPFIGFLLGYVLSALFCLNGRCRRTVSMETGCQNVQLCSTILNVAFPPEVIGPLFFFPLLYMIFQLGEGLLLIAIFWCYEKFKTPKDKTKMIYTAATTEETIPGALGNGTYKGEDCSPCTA
Chain of UniProt A3M8H2 (whole entry, looked up): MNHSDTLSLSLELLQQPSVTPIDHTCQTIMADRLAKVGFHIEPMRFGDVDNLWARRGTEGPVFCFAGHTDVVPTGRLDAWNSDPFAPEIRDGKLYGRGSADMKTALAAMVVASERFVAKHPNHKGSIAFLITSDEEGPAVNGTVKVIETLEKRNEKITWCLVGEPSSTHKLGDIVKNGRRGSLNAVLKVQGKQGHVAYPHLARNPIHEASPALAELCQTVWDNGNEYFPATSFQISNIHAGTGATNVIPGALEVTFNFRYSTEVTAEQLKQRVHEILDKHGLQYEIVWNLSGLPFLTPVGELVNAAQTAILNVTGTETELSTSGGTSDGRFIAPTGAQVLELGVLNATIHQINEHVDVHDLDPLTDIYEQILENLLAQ
Chain of UniProt Q99808 (whole entry, looked up): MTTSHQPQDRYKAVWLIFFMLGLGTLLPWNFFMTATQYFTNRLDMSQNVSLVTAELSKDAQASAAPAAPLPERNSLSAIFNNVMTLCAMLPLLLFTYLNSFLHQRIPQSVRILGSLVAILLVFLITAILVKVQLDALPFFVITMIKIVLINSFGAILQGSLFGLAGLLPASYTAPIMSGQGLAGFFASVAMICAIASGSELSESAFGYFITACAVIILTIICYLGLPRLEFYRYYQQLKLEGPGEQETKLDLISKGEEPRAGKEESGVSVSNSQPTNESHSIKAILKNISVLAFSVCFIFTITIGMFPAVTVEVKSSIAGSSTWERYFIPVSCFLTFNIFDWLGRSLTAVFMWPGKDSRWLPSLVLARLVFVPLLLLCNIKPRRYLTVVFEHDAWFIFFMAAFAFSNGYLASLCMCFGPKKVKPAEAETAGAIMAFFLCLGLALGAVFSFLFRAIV
Chain of UniProt P23977 (whole entry, looked up): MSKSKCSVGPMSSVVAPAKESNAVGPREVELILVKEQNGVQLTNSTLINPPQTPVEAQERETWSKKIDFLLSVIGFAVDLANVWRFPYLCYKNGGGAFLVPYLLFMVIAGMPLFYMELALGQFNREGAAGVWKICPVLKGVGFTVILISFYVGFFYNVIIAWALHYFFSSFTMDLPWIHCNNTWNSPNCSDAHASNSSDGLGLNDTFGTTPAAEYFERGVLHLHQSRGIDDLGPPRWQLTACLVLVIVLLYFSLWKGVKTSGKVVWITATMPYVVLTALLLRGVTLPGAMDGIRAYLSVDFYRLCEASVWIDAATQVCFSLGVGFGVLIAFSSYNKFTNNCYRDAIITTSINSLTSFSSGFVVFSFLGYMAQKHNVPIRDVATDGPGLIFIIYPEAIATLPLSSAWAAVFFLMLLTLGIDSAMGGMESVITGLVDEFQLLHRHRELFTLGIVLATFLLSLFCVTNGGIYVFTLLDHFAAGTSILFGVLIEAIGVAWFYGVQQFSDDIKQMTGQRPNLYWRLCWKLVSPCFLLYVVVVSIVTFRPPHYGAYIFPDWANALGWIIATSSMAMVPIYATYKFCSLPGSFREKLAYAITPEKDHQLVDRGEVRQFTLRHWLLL
Chain of UniProt P10636 (whole entry, looked up): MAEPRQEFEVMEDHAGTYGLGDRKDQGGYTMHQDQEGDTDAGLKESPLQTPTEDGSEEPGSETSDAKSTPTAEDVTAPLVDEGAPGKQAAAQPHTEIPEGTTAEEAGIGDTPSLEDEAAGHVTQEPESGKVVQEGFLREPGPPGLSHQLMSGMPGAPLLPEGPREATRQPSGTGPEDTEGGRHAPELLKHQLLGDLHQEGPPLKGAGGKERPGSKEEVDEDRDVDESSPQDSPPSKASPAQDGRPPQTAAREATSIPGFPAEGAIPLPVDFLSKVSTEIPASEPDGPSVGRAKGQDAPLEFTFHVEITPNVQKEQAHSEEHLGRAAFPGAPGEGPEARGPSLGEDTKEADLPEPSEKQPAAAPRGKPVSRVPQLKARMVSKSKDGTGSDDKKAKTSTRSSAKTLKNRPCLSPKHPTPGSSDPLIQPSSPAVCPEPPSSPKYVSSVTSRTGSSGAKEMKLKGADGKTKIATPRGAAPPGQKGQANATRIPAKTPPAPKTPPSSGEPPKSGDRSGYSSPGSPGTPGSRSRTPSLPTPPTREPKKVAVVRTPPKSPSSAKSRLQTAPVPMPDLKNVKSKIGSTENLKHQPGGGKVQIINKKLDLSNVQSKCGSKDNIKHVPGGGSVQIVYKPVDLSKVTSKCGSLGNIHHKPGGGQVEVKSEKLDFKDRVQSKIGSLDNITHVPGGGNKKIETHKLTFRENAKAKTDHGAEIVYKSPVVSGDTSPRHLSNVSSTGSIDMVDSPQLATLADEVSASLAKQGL
Chain of UniProt P11609 (whole entry, looked up): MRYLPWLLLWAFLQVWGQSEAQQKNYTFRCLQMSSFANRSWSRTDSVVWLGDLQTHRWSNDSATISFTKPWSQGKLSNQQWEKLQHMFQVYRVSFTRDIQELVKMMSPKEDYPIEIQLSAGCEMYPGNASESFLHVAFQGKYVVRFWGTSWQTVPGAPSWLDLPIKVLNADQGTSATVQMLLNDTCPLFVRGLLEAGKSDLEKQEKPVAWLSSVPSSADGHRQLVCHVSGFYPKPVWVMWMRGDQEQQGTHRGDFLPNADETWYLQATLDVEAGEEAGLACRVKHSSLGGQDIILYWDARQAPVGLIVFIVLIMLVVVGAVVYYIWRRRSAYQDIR

SMILES | target or system | assay | test system | setting | how to read | endpoint | value
Nc1nc(Cl)nc2c1ncn2[C@@H]1O[C@H](CO)[C@@H](O)[C@@H]1F | SLC29A1 (Homo sapiens, UniProt Q99808) | transporter uptake, inhibitor, radiometric | – | – | – | Ki | 40 µM
Cc1csc(S(=O)(=O)Nc2cccn(O)c2=S)c1 | IDE | substrate degradation, fluorescence polarisation | – | mean of physiological substrates | – | Ki | 11 µM
Cc1nn(-c2ccccn2)c2c1C(=O)CC(C)(C)C2Br (stereo not shown) | Cyclin-dependent kinase 2, with cyclin A (CDK2, Homo sapiens, UniProt P24941) | enzyme activity, inhibitor, absorbance | – | – | – | Ki | 2.3 µM
CC(C)[C@H](NC(=O)[C@@H]1CCCN1C(=O)[C@H](CCCNC(=N)N)NC(=O)[C@H](CS)NC(=O)[C@H](Cc1c[nH]c2ccccc12)NC(=O)[C@H](CCCNC(=N)N)NC(=O)[C@@H](Cc1ccccc1)NC(=O)[C@H](Cc1c[nH]cn1)NC(=O)[C@H](CCC(=O)O)NC(=O)[C@H](CS)NC(=O)[C@H](CS)NC(=O)[C@H](CCCCN)NC(=O)[C@@H]1CC(=O)N[C@@H](CCCNC(=N)N)C(=O)N[C@@H](C)C(=O)N[C@@H](CC(=O)O)C(=O)N[C@H](Cc2ccc(O)cc2)C(=O)N1)C(N)=O [technetium-99m labelled] | – | – | C57 mice, spleen | intravenous, 0.037 MBq, 24 h | – | tissue uptake | 0.39 ± 0.24 %ID/g
Nc1ccc(-c2ccc3cc(OCCOCCOCCF)ccc3n2)cc1 | Microtubule-associated protein tau, neurofibrillary tangles (MAPT, Homo sapiens, UniProt P10636) | binding, radioligand competition | AD brain homogenate | 2 h, 37 °C, added: [3H]THK-523 | – | Ki | > 1 µM
CCC(=O)c1ccc2c(c1)sc(=O)n2CCNC12CC3CC(CC(C3)C1)C2 | Sigma-2 receptor (Cavia porcellus, UniProt H0V073) | radioligand binding | guinea pig brain | added: [3H]DTG with (+)-pentazocine | – | Ki | 0.0712 ± 0.00311 µM
CC1(C)[C@H]2CC[C@]1(CS(=O)(=O)Nc1cccn(O)c1=S)C(=O)C2 | IDE | substrate degradation, inhibitor | – | mean of insulin, Aβ, substrate V | – | Ki | 18 µM
N[C@H](C(=O)O)[C@@H]1C[C@@H]1C(=O)O | kainate receptor, rat | [3H]kainate displacement | cortical synaptosomes | – | – | Ki | 0.31 µM
Cn1ccc(S(=O)(=O)Nc2cccn(O)c2=S)n1 | IDE | substrate degradation, inhibitor | – | mean of insulin, Aβ, substrate V | – | Ki | 16 µM
C[C@H](CCC(=O)O)[C@H]1CC[C@H]2[C@@H]3C[C@H](O)[C@@H]4C[C@H](O)CC[C@]4(C)[C@H]3CC[C@]12C | SLC10A1 | transporter uptake, inhibitor, radiometric | – | – | – | Ki | 10.4 µM
Cn1c2c(c3ccccc31)CN(CCCCNC(=O)c1nc3ccccc3[nH]1)CC2 | Slc6a3 (Rattus norvegicus, UniProt P23977) | cell-free assay, inhibitor | – | – | – | Ki | 1.06 µM
O=C(Nc1cccn(O)c1=S)c1cccs1 | IDE | substrate degradation, inhibitor | – | mean of insulin, Aβ, substrate V | – | Ki | 55 µM
CCCCCCCCCCCCCCC(O)C(O)C(COC1OC(CO)C(O)C(O)C1O)NC(=O)CCCCCCCc1ccccc1 (stereo not shown) | Cd1d1 (Mus musculus, UniProt P11609) | competitive binding on microarray | – | added: surface-printed ligand | – | Ki | 1.3 ± 0.4 µM
O=C1c2ccccc2-c2nc3nnnn3nc21 | HeLa expressing Luc-ODC | Luc-ODC degradation, inhibitor, cycloheximide chase luciferase | – | – | – | IC50 | 3 ± 1 µM
C[C@H](CCC(=O)O)[C@H]1CC[C@H]2[C@@H]3[C@@H](O)C[C@@H]4C[C@H](O)CC[C@]4(C)[C@H]3CC[C@]12C | SLC10A1 | transporter uptake, inhibitor, radiometric | – | – | – | Ki | 10.9 µM
CC(C)[C@H](NC(=O)[C@@H]1CCCN1C(=O)[C@H](CCCNC(=N)N)NC(=O)[C@H](CS)NC(=O)[C@H](Cc1c[nH]c2ccccc12)NC(=O)[C@H](CCCNC(=N)N)NC(=O)[C@@H](Cc1ccccc1)NC(=O)[C@H](Cc1c[nH]cn1)NC(=O)[C@H](CCC(=O)O)NC(=O)[C@H](CS)NC(=O)[C@H](CS)NC(=O)[C@H](CCCNC(=N)N)NC(=O)[C@@H]1CC(=O)N[C@@H](CCCNC(=N)N)C(=O)N[C@@H](C)C(=O)N[C@@H](CC(=O)O)C(=O)N[C@H](Cc2ccc(O)cc2)C(=O)N1)C(N)=O [technetium-99m labelled] | – | – | C57 mouse, intestine | intravenous, 0.037 MBq, 2 h | – | tissue uptake | 1.38 ± 0.41 %ID
Cc1ccc2cc(-c3ccccc3)[nH]c2c1 | HEK293 | cell growth or viability | – | 50 µM | – | viability | 84.2%
O=S(=O)(Nc1cccn(O)c1=S)c1ccsc1 | IDE | substrate degradation, fluorescence polarisation | – | mean of physiological substrates | – | Ki | 12 µM
Cn1nc2c3c(cccc31)C(=O)c1ccccc1-2 | HeLa expressing Luc-ODC | Luc-ODC degradation, inhibitor, cycloheximide chase luciferase | – | – | – | IC50 | 0.11 ± 0.01 µM
CCCCCCCCCCCCNC(=O)[C@@H]1CCCN1C(=O)[C@@H]1CCCN1 | trypsin | enzyme activity, inhibitor | – | – | – | Ki | > 1000 µM
CC(C)(C)OC(=O)n1c(-c2ccccc2)cc2ccccc21 | HEK293 | cell growth or viability | – | 50 µM | – | viability | 107%
CSCC[C@H](NC(=O)[C@H](CC(C)C)NC(=O)[C@H](Cc1c[nH]cn1)NC(=O)CNC(=O)[C@@H](NC(=O)[C@H](C)NC(=O)[C@H](Cc1c[nH]c2ccccc12)NC(=O)[C@H](CCC(N)=O)NC(=O)CCCCCNC(=O)[C@H](CCC(=O)NCCCC[C@@H]1NC(=O)[C@@H](Cc2ccc(O)cc2)NC(=O)[C@H](CC(=O)O)NC(=O)CNC(=O)[C@H](CCCNC(=N)N)NC1=O)NC(=O)CN1CCN(CC(=O)O)CCN(CC(=O)O)CC1)C(C)C)C(N)=O [copper-64 labelled] | – | – | ICR SCID mouse, female, liver | intravenous, 750 kBq, 4 h | – | tissue uptake | 1.1 ± 0.11 %ID/g
Cc1ccc(NC(=O)c2ccc(CN3CCN(C)CC3)cc2)cc1Nc1nccc(-c2cncc(-c3oncc3C)c2)n1 | – | – | mild-to-moderate Parkinson's disease patients | oral, 50 mg once daily, pre-dose baseline, on anti-Parkinson medication | direction not given | PDQ-39 score | 16.4 ± 10.1
C[C@H](CS)C(=O)N1CCC[C@H]1C(=O)O | Succinyl-diaminopimelate desuccinylase (dapE, Acinetobacter baumannii, UniProt A3M8H2) | binding, thermal shift | – | – | – | Ki | 9.4 ± 0.3 µM
CC(O)=C(C#N)C(=O)Nc1ccc(-c2cccc(Cl)c2Cl)cc1Cl | dihydroorotate dehydrogenase (Toxoplasma gondii, UniProt Q8MXD1) | – | – | – | – | Ki | 16 µM

A few entries again:
SMILES | target or system | assay | test system | setting | how to read | endpoint | value
N[C@H](C(=O)O)[C@@H]1C[C@@H]1C(=O)O | kainate receptor, rat | [3H]kainate displacement | cortical synaptosomes | – | – | Ki | 0.31 µM
Cc1csc(S(=O)(=O)Nc2cccn(O)c2=S)c1 | IDE | substrate degradation, fluorescence polarisation | – | mean of physiological substrates | – | Ki | 11 µM
Cc1nn(-c2ccccn2)c2c1C(=O)CC(C)(C)C2Br (stereo not shown) | Cyclin-dependent kinase 2, with cyclin A (CDK2, Homo sapiens, UniProt P24941) | enzyme activity, inhibitor, absorbance | – | – | – | Ki | 2.3 µM
